Experimental data of several laboratories.
Protocols differ between the studies behind these lines.

With CC(C)C[C@H](NC(=O)[C@H](CCCN)NC(=O)CNC(=O)[C@@H](NC(=O)[C@H](C)NC(=O)[C@@H]1CSCSC[C@H](NC(=O)CC[C@H](N)C(=O)O)C(=O)N[C@@H](CC(N)=O)C(=O)N[C@@H]([C@@H](C)O)C(=O)N[C@@H](C)C(=O)N[C@@H]([C@@H](C)O)C(=O)N1)[C@@H](C)O)C(=O)N[C@@H](C)C(=O)N[C@@H](CCC(=O)O)C(=O)N[C@@](C)(Cc1ccccc1)C(=O)N[C@@H](CC(C)C)C(=O)N[C@H](C(=O)N[C@@H](CCCNC(=N)N)C(=O)N[C@@H](CO)C(=O)N[C@@H](CO)C(=O)N[C@@H](CC(N)=O)C(=O)N(C)[C@@H](CC(N)=O)C(=O)N[C@@H](Cc1ccccc1)C(=O)NCC(=O)N1CCC[C@H]1C(=O)N[C@@H](CCCCNC(=O)CC[C@H](NC(=O)CC[C@H](NC(=O)CCCCCCCCCCCCCCCCCCC(=O)O)C(=O)O)C(=O)O)C(=O)N[C@@H](CC(C)C)C(=O)N1CCC[C@H]1C(=O)N1CCC[C@H]1C(=O)N[C@H](C(=O)N[C@@H](CCC(=O)O)C(=O)N[C@H](C(=O)NCC(=O)N[C@@H](CO)C(=O)N[C@@H](CC(N)=O)C(=O)N[C@H](C(=O)N[C@@H](Cc1ccc(O)cc1)C(N)=O)[C@@H](C)O)C(C)C)[C@@H](C)O)C(C)C the Cmax was 1030 ng/mL (healthy human, plasma; subcutaneous, 12 mg single dose, geometric LS mean).
For CCOc1cc(CC(=O)N[C@@H](CC(C)C)c2ccccc2N2CCCCC2)ccc1C(=O)O, the Cmax decrease was 23% (human; oral, dose not given, with: omaveloxolone; reference: substrate alone).
The Cmax of CCCCCCCOc1ccc(CC[C@](N)(CO)COP(=O)(O)O)cc1C(F)(F)F is reported as 3.76 ng/mL (healthy human males, plasma; 0.25 mg, day 21).
With O=C(CCc1ccc(CNC(C(=O)O)C2CCCCC2)cn1)NO (centres unmarked) the Cmax ratio was 0.57 (healthy male humans, plasma; oral, 40 mg, single dose; reference: fed over fasted).
CN1CCC[C@]1(C)/C=C/S(=O)(=O)NC(=O)Nc1c2c(cc3c1CCC3O)CCC2 (some centres unmarked): “Cmax at second steady-state dose” 81400 ng/mL (human, plasma; oral, 100 mg twice daily of parent drug, day 14, metabolite of dosed drug).
With O=C(CCc1ccc(CNC(C(=O)OC2CCCC2)C2CCCCC2)cn1)NO (centres unmarked) the Cmax ratio was 0.66 (healthy male humans, plasma; oral, 20 mg, single dose; reference: fed over fasted).
CN1CCC[C@]1(C)/C=C/S(=O)(=O)NC(=O)Nc1c2c(cc3c1CC(O)C3)CCC2 (some centres unmarked) — result for “Cmax at second steady-state dose”: 4700 ng/mL (human, plasma; oral, 50 mg twice daily of parent drug, day 14, metabolite of dosed drug).
The Cmax of CC1(C)CC[C@]2(NC(=O)C(C)(F)F)CC[C@]3(C)[C@H](C(=O)C=C4[C@@]5(C)C=C(C#N)C(=O)C(C)(C)[C@@H]5CC[C@]43C)[C@@H]2C1 is reported as 43 ng/mL (geometric least squares mean; human, plasma; oral, 150 mg, given alone).
